Measurements collected from several papers.
Numbered parts are unrelated; each lists some results of a single study.

Study 1
Target: Phosphate system positive regulatory protein PHO4, full length, GST-tagged (PHO4, Saccharomyces cerevisiae, UniProt P07270, residues 1-312)
Chain of UniProt P07270 (whole entry, looked up): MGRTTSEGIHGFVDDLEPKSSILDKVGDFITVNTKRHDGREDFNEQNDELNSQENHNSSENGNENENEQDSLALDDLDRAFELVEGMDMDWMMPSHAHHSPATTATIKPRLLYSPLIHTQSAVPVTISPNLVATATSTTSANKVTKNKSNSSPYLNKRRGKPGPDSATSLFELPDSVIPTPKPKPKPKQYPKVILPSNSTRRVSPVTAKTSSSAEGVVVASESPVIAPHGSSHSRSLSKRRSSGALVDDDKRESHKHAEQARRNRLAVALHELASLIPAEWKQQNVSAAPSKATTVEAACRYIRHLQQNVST
Technique: competition protein-binding microarray
Form: double-stranded DNA, one strand shown
Matrix: in vitro
Tested at: 2 µM
Setting: whole 60-bp probe, lowest competitor level
Together with: Cbf1 competitor, 0.05 µM
Direction: higher = stronger binding
| Strand | fluorescence intensity [a.u.] |
| --- | --- |
| TTGGCCTAGCCGGTTCGCGTGTGTTTGTCGCTTTTGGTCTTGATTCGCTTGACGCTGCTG | 5380 |
| AAATTACTAAGTTTTCACGTGGATTACCCCGTATGAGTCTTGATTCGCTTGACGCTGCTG | 14500 |
| TACAAATTGGTCCGTCACGTTTCTTTTGTTGACTGTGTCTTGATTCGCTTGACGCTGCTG | 13200 |
| CATACCCAACCTTGGCGTGTGGGTGAAGATATTTGTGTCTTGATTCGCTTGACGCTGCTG | 6340 |
| AAATTACTAAGTTGTGACGTGGGTGACGCCGTATGAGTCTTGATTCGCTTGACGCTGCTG | 6090 |

Study 2
Target: Histone acetyltransferase KAT6A, winged helix 2, GST fusion (KAT6A, Homo sapiens, UniProt Q92794, residues 85-181)
Technique: protein binding microarray
Form: double-stranded DNA, one strand shown
Matrix: in vitro
Tested at: not given
Setting: 8-mer, flanks averaged, mean of 2 arrays, mostly near background
Reference: not given
Direction: higher = stronger binding
Construct (chain): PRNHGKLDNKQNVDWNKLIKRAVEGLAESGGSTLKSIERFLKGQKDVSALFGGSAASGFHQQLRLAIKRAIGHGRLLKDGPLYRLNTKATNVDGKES
| Strand | E-score |
| --- | --- |
| CAGTAAAA | 0.168 |
| ATATTTCC | -0.0601 |
| CTAGCGCA | -0.0851 |
| AGTAGAGC | -0.107 |
| GAAAACGC | 0.0814 |
| ATACACGG | -0.205 |
| GGCGATTA | 0.00789 |

Study 3
Target: Prothrombin, mature alpha-thrombin (F2, Homo sapiens, UniProt P00734)
Technique: aptamer microarray, sandwich
Form: DNA with 2'F-ANA
Matrix: in vitro
Tested at: 200 nM
Setting: whole 15-mer aptamer, many near background
Together with: Cy3 exosite-II aptamer, 400 nM
Direction: higher = stronger binding
Strand: GGTTGGTGTGGTTGG
| Modification | mean fluorescence intensity [a.u.] |
| --- | --- |
| 2'F-ANA at 3 12 13 | 1230 |
| 2'F-ANA at 3 5 6 7 11 12 15 | 243 |
| 2'F-ANA at 1 4 5 7 8 10 11 12 14 15 | 101 |
| 2'F-ANA at 5 6 7 13 14 | 48.8 |
| 2'F-ANA at 1 2 3 5 9 11 13 15 | 51.5 |

Mixed results
| Molecule | target | test | test system | conditions | scale | endpoint | result |
| --- | --- | --- | --- | --- | --- | --- | --- |
| PhoQ, residues 284 288 289 292 302 303 SLKLQV | PhoP, residues 12 14 15 18 19 NHFIF (Escherichia coli, UniProt P23836) | Sort-seq, measured: YFP reporter | E. coli | PhoQ-PhoP variant library, together with: 10 µM Mg2+ | reference: high Mg2+ state, higher = stronger signaling | fold induction | 2.66 |
